Assay results collected from several papers.
Compare with care: the assays were run in different laboratories. Numbers after ± are the reported error.
Melanocortin receptor 3: Melanocortin receptor 3 (Mus musculus, UniProt P33033)
CDK9 with cyclin T1: Cyclin-dependent kinase 9, with cyclin T1 (CDK9, Homo sapiens, UniProt P50750)
PTGDR: Prostaglandin D2 receptor (PTGDR, Homo sapiens, UniProt Q13258)
GRM4: Metabotropic glutamate receptor 4 (GRM4, Homo sapiens, UniProt Q14833)

| Structure (SMILES) | target | test | test system | setting | EC50 [nM] |
| --- | --- | --- | --- | --- | --- |
| COc1ccc(CNC(=O)[C@H]2CN(C(=O)CCl)CCN2S(=O)(=O)c2ccc(OC)cc2)cc1 | Non-POU domain-containing octamer-binding protein (Homo sapiens, UniProt Q15233) | – | – | – | 2200 |
| Cc1cc(N/C=C(\C(=O)NC2CCC2)C(=O)c2ccc(Cl)cc2Cl)no1 | Gamma-aminobutyric acid receptor subunit alpha-4/beta3/delta (Homo sapiens, UniProt O14764+P28472+P48169) | GABA current potentiation, positive modulator, two-electrode voltage clamp | Xenopus laevis oocytes | 30 s preincubation, with: GABA EC10 | 140 ± 10 |
| CC(=O)N[C@@H](Cc1cnc[nH]1)C(=O)N[C@H](Cc1ccc(C(C)(C)C)cc1)C(=O)N[C@@H](CCCN=C(N)N)C(=O)N[C@@H](Cc1c[nH]c2ccccc12)C(N)=O | Melanocortin receptor 3 | reporter gene, agonist | – | – | > 100000 |
| Clc1ccc2ccc3[n+](c2c1)[Rh-3]12([c]4ccccc4-3)([c]3ccccc3-c3ccc4ccc(Cl)cc4[n+]31)[n+]1cccc3ccc4ccc[n+]2c4c31.F[P-](F)(F)(F)(F)F | CDK9 with cyclin T1 | enzyme activity, inhibitor | – | – | > 1000 |
| CCOC(=O)C1=CN([C@@H]2O[C@H](CO)[C@@H](O)[C@H]2O)C=CC1 | SIRT5 (Homo sapiens, UniProt Q9NXA8) | – | – | – | 88000 |
| O=C(/C=C(\O)C(F)(F)C(F)(F)F)c1cccnc1 | Formate-nitrite transporter (Plasmodium falciparum, UniProt O77389) | cell viability, resazurin | yeast expressing Formate-nitrite transporter | 72 h, L-lactate medium | 60 |
| C[C@H](NC(=O)[C@H](CC(N)=O)NC(=O)[C@H](Cc1c[nH]c2ccccc12)NC(=O)[C@H](CCCNC(=N)N)NC(=O)[C@@H](Cc1ccccc1)NC(=O)[C@H](Cc1c[nH]cn1)NC(=O)[C@H](CCCN=[N+]=[N-])NC(=O)[C@@H](N)Cc1ccc(O)cc1)C(=O)N[C@@H](Cc1ccccc1)C(=O)N[C@@H](CCCN=[N+]=[N-])C(=O)N[C@@H](Cc1ccc(O)cc1)C(N)=O | Melanocortin receptor 3 | agonist | – | – | 674 ± 162 |
| O=C(c1cc2c(s1)CCCCC2)N1CCC(n2c(=O)[nH]c3ccccc32)CC1 | TRPC6 (Homo sapiens, UniProt Q9Y210, N702Q) | channel activation, agonist, whole-cell patch clamp | – | – | 3070 ± 810 |
| O=C(O)/C=C/c1cccc(NC(=O)c2cc(-c3ccc(F)cc3)ccc2F)c1 | PTGDR | calcium signal, agonist, fluorescence | – | – | > 10000 |
| Cc1cccc2[n+]1[Ir-3]13([c]4ccccc4-c4ccc5ccc(Cl)cc5[n+]41)([c]1ccccc1-c1ccc4ccc(Cl)cc4[n+]13)[n+]1c(C)cccc1-2.F[P-](F)(F)(F)(F)F | CDK9 with cyclin T1 | enzyme activity, inhibitor | – | – | 50.1 |
| N[C@@H](Cc1c[nH]c2ccc(OCc3ccc(-c4cccs4)cc3)cc12)C(=O)O | SLC7A5 (Homo sapiens, UniProt Q01650) | leucine uptake | HT-29 | with: [3H]-L-leucine | 20000 |
| COc1cc[n+]2c(c1)-c1cc(OC)cc[n+]1[Ir-3]213([c]2ccccc2-c2ccc4ccc(Cl)cc4[n+]21)[c]1ccccc1-c1ccc2ccc(Cl)cc2[n+]13.F[P-](F)(F)(F)(F)F | CDK9 with cyclin T1 | enzyme activity, inhibitor | – | – | > 1000 |
| O=C(O)COc1cccc(NC(=O)c2cc(-c3cccc(F)c3)ccc2F)c1 | PTGDR | calcium signal, agonist, fluorescence | – | – | > 10000 |
| Clc1ccc2ccc3[n+](c2c1)[Rh-3]12([c]4ccccc4-3)([c]3ccccc3-c3ccc4ccc(Cl)cc4[n+]31)[n+]1ccccc1-c1cccc[n+]12.F[P-](F)(F)(F)(F)F | CDK9 with cyclin T1 | enzyme activity, inhibitor | – | – | 162 |
| CC[C@H](C)[C@H](NC(=O)[C@H](CO)NC(=O)[C@H](Cc1ccc(O)cc1)NC(=O)[C@H](CC(=O)O)NC(=O)[C@H](CO)NC(=O)[C@@H](NC(=O)[C@H](Cc1ccccc1)NC(=O)[C@@H](NC(=O)CNC(=O)[C@@H]1CCCN1C(=O)[C@H](C)NC(=O)[C@@H](N)Cc1ccc(O)cc1)[C@@H](C)O)[C@@H](C)CC)C(=O)N[C@@H](C)C(=O)N[C@@H](CCSC)C(=O)N[C@@H](CC(=O)O)C(=O)N[C@@H](CCCCN)C(=O)N[C@H](C(=O)N[C@@H](Cc1c[nH]cn1)C(=O)N[C@@H](CCC(N)=O)C(=O)N[C@@H](CCC(N)=O)C(=O)N[C@@H](CC(=O)O)C(=O)N[C@@H](Cc1ccccc1)C(=O)N[C@H](C(=O)N[C@@H](CC(N)=O)C(=O)N[C@@H](Cc1c[nH]c2ccccc12)C(=O)N[C@@H](CC(C)C)C(=O)N[C@@H](CC(C)C)C(=O)N[C@@H](C)C(=O)N[C@@H](CCC(N)=O)C(=O)N[C@@H](CCCCN)C(=O)NCC(=O)N[C@@H](CCCCN)C(=O)N[C@@H](CCCCN)C(=O)N[C@@H](CC(N)=O)C(=O)N[C@@H](CC(=O)O)C(=O)N[C@@H](Cc1c[nH]c2ccccc12)C(=O)N[C@@H](CCCCN)C(=O)N[C@@H](Cc1c[nH]cn1)C(=O)N[C@@H](CC(N)=O)C(=O)N[C@H](C(=O)N[C@H](C(=O)N[C@@H](CCC(N)=O)C(=O)O)[C@@H](C)O)[C@@H](C)CC)C(C)C)[C@@H](C)CC | Gastric inhibitory polypeptide receptor (Rattus norvegicus, UniProt P43219) | cAMP, agonist | – | – | 15 |
| CC(=O)Nc1ccc(SCC(=O)c2cc(C)n(-c3ccc(S(N)(=O)=O)cc3)c2C)cc1 | GRM4 | calcium signal, positive allosteric modulator | – | – | > 10000 |
| CCCCCCCOc1ccc(CC[C@](N)(CO)COP(=O)(O)O)cc1C(F)(F)F | S1PR4 (Homo sapiens, UniProt O95977) | calcium signal, agonist | – | – | 122 |
| O=C(Nc1cc(F)ccn1)C12CC1/C(=N\O)c1ccccc1O2 (single isomer, unassigned; (+)) | GRM4 | calcium mobilisation, positive allosteric modulator | CHO hmGluR4/Gqi5 | with: glutamate EC20 | > 5000 |
| O=C(NO)c1cnc(NC2(c3cccc(F)c3)CCCCC2)nc1 | MBLAC2 (Homo sapiens, UniProt Q68D91) | palmitoyl-CoA hydrolysis, inhibitor | – | with: [3H]palmitoyl-CoA | < 6.31 |
| O=C(O)/C=C/c1cccc(NC(=O)c2cc(-c3ccccc3)ccc2F)c1 | PTGER1 (Homo sapiens, UniProt P34995) | calcium signal, agonist, fluorescence | – | – | > 10000 |
| CCOC(=O)C(C)(C)C(C)O (stereo not shown) | PPARA (Homo sapiens, UniProt Q07869) | coactivator recruitment, agonist, TR-FRET | – | – | 35900 |
| COc1ccc(OC[C@H]2c3cccn3CC(=O)N2Cc2cccc(F)c2)cc1 | Glutamate NMDA receptor; Grin1/Grin2c (Rattus norvegicus, UniProt P35439+Q00961) | ion current, agonist, two-electrode voltage clamp | – | oocytes | 700 |
| COc1ccc(C(=O)Nc2c(-c3cccs3)nc3ccccn23)cc1 | Gamma-aminobutyric acid receptor subunit alpha-4/beta-2/delta (Homo sapiens, UniProt O14764+P47870+P48169) | positive allosteric modulator, FLIPR membrane potential | HEK293 Flp-In | with: GABA EC20 | 2910 |
| Cc1cc2sc(N)nc2c2cc(C(F)(F)F)cnc12 | KCNN4/CALM1 (Homo sapiens, UniProt O15554+P0DP23) | ion current, activator, patch clamp | – | – | > 30000 |
| CCCCCCCC/C=C\CCCCCCCC(=O)NCCO | Trpv1 (Mus musculus, UniProt Q704Y3) | ion current, agonist, whole-cell patch clamp | HEK293 | 24 °C, wild type, +80 mV | 350 ± 70 |
